Measured values gathered from unrelated publications.
A part holds a random share of what one study measured. Substitutions count along the parent as printed.

Series 1
Target: TAR DNA-binding protein 43, full length, His tag (TARDBP, Homo sapiens, UniProt Q13148, residues 1-414)
Method: RNA Bind-n-Seq
Molecule type: RNA
Sample: in vitro
Tested at: 20 nM
Setting: 6-mer, flanks averaged, single round
Added: 150 mM LiCl
Baseline: input library
Direction: higher = stronger binding
Quantity: 6-mer enrichment (R)
GCAAUC: 0.843
UCGGAG: 1
UAACCG: 0.836
GGAUCC: 0.911
UGCAAG: 0.974
ACUCAG: 0.837

Series 2
Target: ABI1, truncated, D143A, DHFR fusion (Arabidopsis thaliana)
Method: DHFR PCA, deep sequencing
Sample: yeast
Setting: methotrexate growth selection, single substitutions
Added: (+)-ABA 0.39 µM
Baseline: wild-type fitted maximum
Direction: higher = stronger binding
Quantity: relative binding score
Starting sequence: PYL1, truncated, DHFR fusion (Arabidopsis thaliana); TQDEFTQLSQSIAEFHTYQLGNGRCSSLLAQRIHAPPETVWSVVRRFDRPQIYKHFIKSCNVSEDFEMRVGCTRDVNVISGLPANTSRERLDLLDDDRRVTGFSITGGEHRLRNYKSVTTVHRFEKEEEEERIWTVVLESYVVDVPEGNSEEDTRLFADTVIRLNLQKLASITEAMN; partner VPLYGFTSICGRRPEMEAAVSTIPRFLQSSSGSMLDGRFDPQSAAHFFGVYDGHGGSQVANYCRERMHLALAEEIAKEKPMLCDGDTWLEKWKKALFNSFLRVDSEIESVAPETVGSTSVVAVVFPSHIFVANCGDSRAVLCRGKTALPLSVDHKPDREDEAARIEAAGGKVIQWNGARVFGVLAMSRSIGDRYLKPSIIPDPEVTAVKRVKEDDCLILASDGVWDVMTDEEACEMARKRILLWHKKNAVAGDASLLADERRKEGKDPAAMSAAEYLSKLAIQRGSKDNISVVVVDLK
H122R: -7.03%
L8T: -5.21%
N177P: 60.7%
W134K: -0.0417%
C25Y: -9.81%
L8D: -6.49%
C60H: 5.62%
H122K: 0.632%

Series 3
Target: CCNB3, cyclin fold, Cln2 fusion (human)
Method: yeast growth competition, sequencing
Sample: yeast
Setting: weak parent motif
Baseline: not given
Direction: higher = stronger binding
Quantity: normalised enrichment score
Starting sequence: WEE1 docking peptide (human); HKTFRKLRLFDTP; partner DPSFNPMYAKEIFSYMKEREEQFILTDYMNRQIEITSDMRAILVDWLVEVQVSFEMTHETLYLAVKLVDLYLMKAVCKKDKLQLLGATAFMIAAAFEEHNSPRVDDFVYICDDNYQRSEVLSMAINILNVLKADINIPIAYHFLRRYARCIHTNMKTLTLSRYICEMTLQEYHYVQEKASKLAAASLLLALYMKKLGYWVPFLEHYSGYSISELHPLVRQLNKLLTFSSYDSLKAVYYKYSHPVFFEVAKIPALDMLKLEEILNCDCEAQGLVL
T3N: -0.727
F4M: 0.228
K2H: 0.0705
P13G: -0.448
P13D: 0.4
L9K: 0.439
R8K: 0.39

Single results of other studies
PhoQ, residues 284 288 289 292 302 303 HSYLQF  fold induction (PhoP, residues 12 14 15 18 19 LYHSL (Escherichia coli, UniProt P23836); Sort-seq, measured: YFP reporter; E. coli; PhoQ-PhoP variant library, added: 10 µM Mg2+; baseline: high Mg2+ state, higher = stronger signaling): 10.9

Some of these lines once more (series 3):
P13D: 0.4
T3N: -0.727
P13G: -0.448
